Measurements pooled from the literature.
“And” joins repeats or separate records; there may be more than shown. Numbers after ± are the reported error.
ROP18: ROP18 (Toxoplasma gondii, UniProt Q2PAY2)
Phenylalanine--tRNA ligase alpha subunit: Phenylalanine--tRNA ligase alpha subunit (Plasmodium falciparum, UniProt Q8I246)
secA: Protein translocase subunit SecA (secA, Escherichia coli, UniProt P10408)
UniProt P10408, sequence (whole entry, looked up): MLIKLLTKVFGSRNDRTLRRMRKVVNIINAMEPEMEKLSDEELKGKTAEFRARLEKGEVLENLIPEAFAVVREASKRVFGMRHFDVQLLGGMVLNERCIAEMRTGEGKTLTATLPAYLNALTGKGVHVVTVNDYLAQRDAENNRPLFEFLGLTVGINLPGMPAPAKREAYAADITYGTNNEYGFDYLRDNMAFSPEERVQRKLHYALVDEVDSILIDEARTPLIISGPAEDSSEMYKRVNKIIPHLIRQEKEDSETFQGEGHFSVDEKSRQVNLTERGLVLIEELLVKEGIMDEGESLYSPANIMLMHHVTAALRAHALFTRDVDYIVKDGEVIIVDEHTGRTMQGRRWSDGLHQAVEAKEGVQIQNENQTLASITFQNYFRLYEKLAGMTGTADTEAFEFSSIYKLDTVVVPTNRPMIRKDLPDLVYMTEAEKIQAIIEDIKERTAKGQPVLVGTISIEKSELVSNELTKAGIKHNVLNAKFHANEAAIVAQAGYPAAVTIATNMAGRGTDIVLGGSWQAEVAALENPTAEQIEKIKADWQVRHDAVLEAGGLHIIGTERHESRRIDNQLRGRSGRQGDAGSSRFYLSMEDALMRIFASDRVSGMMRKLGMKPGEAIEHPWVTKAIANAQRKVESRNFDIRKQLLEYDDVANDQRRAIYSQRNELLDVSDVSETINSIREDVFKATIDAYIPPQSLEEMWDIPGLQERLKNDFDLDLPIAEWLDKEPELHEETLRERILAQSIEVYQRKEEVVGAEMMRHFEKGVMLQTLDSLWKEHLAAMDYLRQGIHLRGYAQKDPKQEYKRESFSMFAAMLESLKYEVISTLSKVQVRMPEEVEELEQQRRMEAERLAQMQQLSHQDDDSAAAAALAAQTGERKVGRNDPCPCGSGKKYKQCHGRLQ
AR: Androgen receptor (AR, Homo sapiens, UniProt P10275)
UniProt P10275, sequence (whole entry, looked up): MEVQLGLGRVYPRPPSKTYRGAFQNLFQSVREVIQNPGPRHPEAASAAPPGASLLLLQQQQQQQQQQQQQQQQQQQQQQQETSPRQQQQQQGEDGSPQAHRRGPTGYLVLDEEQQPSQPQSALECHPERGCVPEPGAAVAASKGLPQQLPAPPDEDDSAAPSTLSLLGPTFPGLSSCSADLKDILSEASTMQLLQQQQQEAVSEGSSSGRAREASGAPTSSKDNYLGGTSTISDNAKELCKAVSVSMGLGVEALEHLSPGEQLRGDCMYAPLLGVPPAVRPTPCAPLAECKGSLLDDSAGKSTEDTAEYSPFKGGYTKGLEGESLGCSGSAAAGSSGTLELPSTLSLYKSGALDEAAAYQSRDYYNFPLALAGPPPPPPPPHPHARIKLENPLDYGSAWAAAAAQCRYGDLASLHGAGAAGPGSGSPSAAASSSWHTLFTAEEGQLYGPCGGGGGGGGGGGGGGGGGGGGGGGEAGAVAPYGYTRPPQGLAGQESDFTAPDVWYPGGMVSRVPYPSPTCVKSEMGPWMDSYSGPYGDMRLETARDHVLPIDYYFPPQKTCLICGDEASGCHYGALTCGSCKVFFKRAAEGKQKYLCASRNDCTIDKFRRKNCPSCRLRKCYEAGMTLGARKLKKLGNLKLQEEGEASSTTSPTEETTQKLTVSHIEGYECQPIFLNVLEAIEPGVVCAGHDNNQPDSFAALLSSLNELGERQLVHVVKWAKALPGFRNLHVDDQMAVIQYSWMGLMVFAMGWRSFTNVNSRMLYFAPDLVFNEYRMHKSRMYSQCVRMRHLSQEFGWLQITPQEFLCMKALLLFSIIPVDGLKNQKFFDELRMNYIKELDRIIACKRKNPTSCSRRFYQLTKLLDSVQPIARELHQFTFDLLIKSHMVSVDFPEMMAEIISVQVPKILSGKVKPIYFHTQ
HDAC1: Histone deacetylase 1 (HDAC1, Homo sapiens, UniProt Q13547)
UniProt P81908, sequence (whole entry, looked up): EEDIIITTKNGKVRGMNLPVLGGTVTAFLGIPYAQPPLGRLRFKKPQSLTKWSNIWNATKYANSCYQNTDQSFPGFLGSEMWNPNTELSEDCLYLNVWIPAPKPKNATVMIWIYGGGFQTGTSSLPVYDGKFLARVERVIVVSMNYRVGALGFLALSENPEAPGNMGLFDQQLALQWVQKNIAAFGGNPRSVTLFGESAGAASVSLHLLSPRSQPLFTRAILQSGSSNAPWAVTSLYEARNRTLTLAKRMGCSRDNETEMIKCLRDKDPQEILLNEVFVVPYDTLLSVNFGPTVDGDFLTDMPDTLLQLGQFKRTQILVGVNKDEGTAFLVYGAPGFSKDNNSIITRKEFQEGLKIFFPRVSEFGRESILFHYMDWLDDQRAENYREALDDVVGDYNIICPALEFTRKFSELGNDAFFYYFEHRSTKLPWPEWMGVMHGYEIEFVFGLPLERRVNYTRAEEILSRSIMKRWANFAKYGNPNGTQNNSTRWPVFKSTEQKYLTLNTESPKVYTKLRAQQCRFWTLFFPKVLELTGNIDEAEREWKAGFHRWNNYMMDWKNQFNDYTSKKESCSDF
UniProt P06276, sequence (whole entry, looked up): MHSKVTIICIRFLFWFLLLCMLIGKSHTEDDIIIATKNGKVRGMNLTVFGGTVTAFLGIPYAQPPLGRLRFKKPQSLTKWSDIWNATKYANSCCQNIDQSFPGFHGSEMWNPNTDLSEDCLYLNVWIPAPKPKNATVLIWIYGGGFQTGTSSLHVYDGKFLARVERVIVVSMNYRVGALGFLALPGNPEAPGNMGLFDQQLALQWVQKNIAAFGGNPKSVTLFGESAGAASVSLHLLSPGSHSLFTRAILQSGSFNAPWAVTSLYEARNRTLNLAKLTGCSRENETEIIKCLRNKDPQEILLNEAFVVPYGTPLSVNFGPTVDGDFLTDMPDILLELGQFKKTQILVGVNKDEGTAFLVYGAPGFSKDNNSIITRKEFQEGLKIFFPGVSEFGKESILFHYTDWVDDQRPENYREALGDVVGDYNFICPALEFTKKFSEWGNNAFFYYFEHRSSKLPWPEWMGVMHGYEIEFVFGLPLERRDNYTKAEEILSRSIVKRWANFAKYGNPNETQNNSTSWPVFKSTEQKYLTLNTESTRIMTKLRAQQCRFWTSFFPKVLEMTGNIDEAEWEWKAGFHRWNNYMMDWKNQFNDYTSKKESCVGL
UniProt Q13547, sequence (whole entry, looked up): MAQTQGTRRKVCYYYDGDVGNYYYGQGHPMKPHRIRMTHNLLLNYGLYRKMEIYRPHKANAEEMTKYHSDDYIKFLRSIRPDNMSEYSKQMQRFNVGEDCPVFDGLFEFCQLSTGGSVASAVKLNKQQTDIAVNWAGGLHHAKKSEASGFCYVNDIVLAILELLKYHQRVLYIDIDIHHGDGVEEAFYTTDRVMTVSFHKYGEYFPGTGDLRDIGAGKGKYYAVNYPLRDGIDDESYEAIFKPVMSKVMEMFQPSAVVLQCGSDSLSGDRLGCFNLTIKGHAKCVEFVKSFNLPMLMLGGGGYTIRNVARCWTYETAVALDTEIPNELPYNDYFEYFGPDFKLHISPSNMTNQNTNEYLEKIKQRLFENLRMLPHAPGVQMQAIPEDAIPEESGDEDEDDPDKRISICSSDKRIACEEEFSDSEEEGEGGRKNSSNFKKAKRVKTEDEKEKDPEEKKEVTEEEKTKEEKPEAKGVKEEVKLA
UniProt P39135, sequence (whole entry, looked up): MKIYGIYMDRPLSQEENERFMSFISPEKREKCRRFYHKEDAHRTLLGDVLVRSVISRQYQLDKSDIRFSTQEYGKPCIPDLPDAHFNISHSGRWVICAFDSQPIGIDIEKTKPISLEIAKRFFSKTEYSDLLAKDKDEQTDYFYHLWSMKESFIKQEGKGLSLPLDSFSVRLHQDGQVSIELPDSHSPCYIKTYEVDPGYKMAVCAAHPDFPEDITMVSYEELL
UniProt Q8IYT8, sequence (whole entry, looked up): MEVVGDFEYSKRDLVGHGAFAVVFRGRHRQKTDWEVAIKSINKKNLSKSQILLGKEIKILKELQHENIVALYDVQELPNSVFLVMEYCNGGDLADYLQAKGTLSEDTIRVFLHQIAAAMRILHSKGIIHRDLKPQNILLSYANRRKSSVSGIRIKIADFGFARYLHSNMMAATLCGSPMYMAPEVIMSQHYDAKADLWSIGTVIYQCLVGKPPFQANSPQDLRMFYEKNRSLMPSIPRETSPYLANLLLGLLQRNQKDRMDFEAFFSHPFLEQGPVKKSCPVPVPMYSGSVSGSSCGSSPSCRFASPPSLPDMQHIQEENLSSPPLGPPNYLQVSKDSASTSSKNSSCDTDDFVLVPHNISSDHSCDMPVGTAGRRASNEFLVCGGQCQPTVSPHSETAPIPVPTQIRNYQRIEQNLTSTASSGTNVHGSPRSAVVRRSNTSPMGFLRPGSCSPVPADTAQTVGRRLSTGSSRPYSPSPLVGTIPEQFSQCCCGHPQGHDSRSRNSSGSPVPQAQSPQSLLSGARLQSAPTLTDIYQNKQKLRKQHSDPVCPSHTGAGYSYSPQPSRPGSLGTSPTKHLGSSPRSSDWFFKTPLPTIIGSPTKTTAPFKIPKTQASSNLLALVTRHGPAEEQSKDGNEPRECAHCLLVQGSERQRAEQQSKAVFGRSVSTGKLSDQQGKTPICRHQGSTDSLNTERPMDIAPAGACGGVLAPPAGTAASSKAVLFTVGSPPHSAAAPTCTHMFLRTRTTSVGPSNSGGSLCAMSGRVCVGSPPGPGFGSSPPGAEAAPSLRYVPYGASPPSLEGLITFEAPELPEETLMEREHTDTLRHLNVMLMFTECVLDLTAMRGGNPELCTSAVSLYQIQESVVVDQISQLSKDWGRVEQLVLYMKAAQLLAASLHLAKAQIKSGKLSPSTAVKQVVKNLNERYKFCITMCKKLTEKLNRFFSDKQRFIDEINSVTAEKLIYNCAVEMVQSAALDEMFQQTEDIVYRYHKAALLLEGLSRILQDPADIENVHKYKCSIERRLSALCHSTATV
UniProt P14174, sequence (whole entry, looked up): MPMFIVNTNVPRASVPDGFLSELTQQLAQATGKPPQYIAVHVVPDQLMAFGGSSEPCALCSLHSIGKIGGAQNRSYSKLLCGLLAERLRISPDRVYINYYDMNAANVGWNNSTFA

SMILES	target	assay	test system	conditions	IC50
O=C1Nc2ccc(S(=O)(=O)O)cc2C1=C1Nc2ccccc2C1=NO	Putative glycogen synthase kinase (Leishmania major, UniProt Q4QE15, D105E)	enzyme activity, inhibitor	–	90 min, 30 °C, together with: ATP 2 µM	8630 nM
CSC[C@H]1O[C@@H](n2cnc3c(N)ncnc32)[C@H](O)[C@@H]1O	Protein arginine methyltransferase 1 (Plasmodium falciparum, UniProt Q8ILK1)	methyltransferase activity, inhibitor	–	30 min, 30 °C, together with: histone H4 substrate	> 360000 nM
CCC(=O)Nc1cc(Nc2cc(NC3CC3)n3ncc(C#N)c3n2)ccc1N1CCNCC1	Casein kinase II subunit alpha' (CSNK2A2, Homo sapiens, UniProt P19784)	target engagement in cells, BRET	–	–	200 nM
CC1=C(C(=O)NC(=O)c2cnccn2)C(c2ccc(Cl)cc2)NC(=O)N1 (stereo not shown)	Cholinesterase (BCHE, Equus caballus, UniProt P81908)	–	–	–	4750 ± 10 nM
Nc1ncnc2c1ncn2[C@H]1C[C@H](OP(=O)(O)O)[C@@H](COP(=O)(O)O)O1	sfp (Bacillus subtilis, UniProt P39135)	phosphopantetheinylation, inhibitor, fluorescence polarization	–	45 min, pH 7.6, 10% DMSO, together with: VibB 10 µM and rhodamine-CoA 5 µM	11000 ± 1000 nM
CC(C)(CO)CNC(=O)c1ccc2c(c1)C(=NNc1ccc(S(N)(=O)=O)cc1)C(=O)N2	ROP18	enzyme activity, inhibitor	–	–	390 nM
C[C@@H]1CC[C@@]2(OC1)O[C@H]1[C@@H](O)[C@H]3[C@@H]4CC[C@H]5C[C@@H](O[C@@H]6O[C@H](CO)[C@H](O[C@@H]7O[C@H](CO)[C@@H](O)[C@H](O[C@@H]8OC[C@@H](O)[C@H](O)[C@H]8O)[C@H]7O[C@@H]7O[C@H](CO)[C@H](O)[C@H](O[C@@H]8O[C@H](CO)[C@@H](O)[C@H](O)[C@H]8O)[C@H]7O)[C@H](O)[C@H]6O)[C@H](O)C[C@]5(C)[C@H]4CC[C@]3(C)[C@H]1[C@@H]2C	Voltage-gated inwardly rectifying potassium channel KCNH2 (KCNH2, Homo sapiens, UniProt Q12809)	ion current, inhibitor, thallium influx	–	10 (unit not given)	40000 nM
O=C(C=Cc1ccc2ccccc2n1)c1cc(Cl)ccc1O	Replicase polyprotein 1ab, main protease (Feline coronavirus, UniProt Q98VG9)	enzyme activity, inhibitor, FRET	–	–	25900 nM
C=C(C)CN=C=S	Macrophage migration inhibitory factor (MIF, Homo sapiens, UniProt P14174)	enzyme activity, inhibitor	–	with preincubation	1430 nM
O=C1Nc2ccc3ncsc3c2/C1=C/Nc1ccc(S(=O)(=O)Nc2ccccn2)cc1	Putative glycogen synthase kinase (Leishmania major, UniProt Q4QE15, D105E/Y102F)	enzyme activity, inhibitor	–	90 min, 30 °C, together with: ATP 2 µM	30 nM
CC1(C)[C@@H](OC(=O)CCC(=O)O)CC[C@]2(C)[C@H]3C(=O)C=C4[C@@H]5C[C@@](C)(C(=O)O)CC[C@]5(C)CC[C@@]4(C)[C@]3(C)CC[C@@H]12	CRISPR-associated endonuclease Cas9/Csn1 (cas9, Streptococcus pyogenes serotype M1, UniProt Q99ZW2)	DNA cleavage, inhibitor, in vitro cleavage	Streptococcus pyogenes	together with: FAM-labelled PCSK9 DNA substrate	~5000 nM
N#Cc1cccc(OC(=O)NCCCCCn2ccc3ccc(F)cc32)c1	Cholinesterase (BCHE, Equus caballus, UniProt P81908)	enzyme activity, inhibitor, HPLC	–	–	380 nM
N=C(N)NCc1ccc(C(=O)NCCCCC(NC(=O)NC(CCC(=O)O)C(=O)O)C(=O)O)cc1I (stereo not shown)	Glutamate carboxypeptidase 2 (FOLH1, Homo sapiens, UniProt Q04609)	enzyme activity, inhibitor, fluorescence	–	lysate	2.24 nM
CN(Cc1cccc(-c2ccncc2)c1)C(=O)OC(C(F)(F)F)C(F)(F)F	Fatty-acid amide hydrolase 1 (Faah, Mus musculus, UniProt O08914)	competitive ABPP	mouse brain membrane proteome	–	> 50000 nM
CCCCCCCCCCCCC/C=C/[C@@H](O)[C@@H](N)COP(=O)(O)OCC[N+](C)(C)C	Ryanodine receptor 1 (RYR1, Oryctolagus cuniculus, UniProt P11716)	[3H]ryanodine binding, radioligand binding	skeletal SR vesicles	reducing, no calmodulin, together with: 5 mM GSH, 50 µM free Ca2+	26100 ± 800 nM
N#CC(=C(/N)Sc1ccccc1N)/C(C#N)=C(\N)Sc1ccccc1N	ERRα (human)	reporter gene, antagonist, luciferase reporter qHTS	–	–	11200 nM
Cc1cccc(C)c1S	Potassium/sodium hyperpolarization-activated cyclic nucleotide-gated channel 1 (Hcn1, Mus musculus, UniProt O88704)	channel gating (V1/2 shift), inhibitor, two-electrode voltage clamp	Xenopus oocytes	–	408000 ± 55000 nM
O=c1oc(Cl)c(Cl)c2ccccc12	Immunoglobulin A1 protease autotransporter (Haemophilus influenzae, UniProt P44969)	inhibitor	–	–	400 nM and 410 nM
CC(=O)OC[C@H]1O[C@@H]([S-])[C@H](OC(C)=O)[C@@H](OC(C)=O)[C@@H]1OC(C)=O.CCP(CC)CC.[Au+]	ERRα (human)	reporter gene, antagonist, luciferase reporter qHTS	–	–	1680 nM
CCOC(=O)c1c(CSc2ccccc2)n(C)c2cc(Br)c(O)c(CN(C)C)c12	Solute carrier organic anion transporter family member 1B1 (SLCO1B1, Homo sapiens, UniProt Q9Y6L6)	transport, inhibitor	–	10 (unit not given), pre-incubation, together with: estrone-3-sulfate	17500 ± 11900 nM
CC(C)c1ccc2c(c1)c(SC(C)(C)C)c(CC(C)(C)C(=O)O)n2Cc1ccc(Cl)cc1	Protein adenylyltransferase VopS (vopS, Vibrio parahaemolyticus serotype O3:K6, UniProt Q87P32)	AMPylation activity, inhibitor, fluorescence polarisation	–	3 h, together with: Cdc42 Q61L 5 µM, Fl-ATP 250 nM	50000 nM
CC(C)Cc1ccc(NC(=O)Oc2ccc3c(c2)[C@]2(C)CCN[C@@H]2N3)cc1	Cholinesterase (BCHE, Homo sapiens, UniProt P06276)	enzyme activity, inhibitor, immobilized enzyme reactor, HPLC-UV	immobilized recombinant human enzyme	inhibition plateau, L-tartrate salt	8.01 ± 0.24 nM
CNC(=O)c1ccccc1Oc1nc(Nc2cc(OC)c(OC)c(OC)c2)ncc1Br	Serine/threonine-protein kinase ULK2 (ULK2, Homo sapiens, UniProt Q8IYT8)	enzyme activity, inhibitor, radiometric	–	–	711 nM

SMILES	target	assay	test system	conditions	IC50
Fc1cccc(-n2cnc3c(NCc4nc5c(F)c(F)ccc5[nH]4)nc(N4CCOCC4)nc32)c1	Cyclin-dependent kinase 6, with cyclin D1 (CDK6, Homo sapiens, UniProt Q00534)	enzyme activity, inhibitor	–	–	428 nM
COc1ccc(NC(=O)N2CCCCN3[C@H](CN4CCN(C)CC4)[C@H](c4ccc(C#Cc5ccccc5)cc4)[C@@H]3C2)cc1	Phenylalanine--tRNA ligase alpha subunit	aminoacylation activity, inhibitor	–	–	233 nM
c1ccc2c(c1)c1cccc3ccc4cccc2c4c31	Cytochrome P450 1B1 (CYP1B1, Homo sapiens, UniProt Q16678)	enzyme activity, inhibitor	–	5 s, pH 7.4	< 50 nM
O=C(O)CNCP(=O)(O)O	EPSPS, Arabidopsis thaliana, wild type	enzyme activity	plant extract	–	16100 ± 2600 nM
CSc1nc(Cl)cc(Sc2nnc(-c3cc(C(F)(F)F)cc(C(F)(F)F)c3)[nH]2)n1	secA	protein translocation, inhibitor	773 inverted membranes	together with: proOmpA	1500 to 2000 nM and 1500 nM
Oc1c(Cl)cc(-c2ccccc2)cc1Cl	Sulfotransferase 2A6 (Sult2a6, Rattus norvegicus, UniProt P22789)	enzyme activity, inhibitor	–	6 min, 37 °C, together with: DHEA 10 µM	64000 nM
CC12CCC(OC(=O)NCCCn3ccnc3)CC1CCC1C2CCC2(C)C(c3ccc(=O)oc3)CCC12O (stereo not shown)	Sodium/potassium-transporting ATPase subunit alpha-1 (atp1a1, Xenopus laevis, UniProt Q92123)	Na+,K+ pump current, inhibitor, two-electrode voltage clamp	uninjected Xenopus laevis oocytes	-60 mV holding	~20 nM and 21 nM
C=CC=O	Thioredoxin reductase 2, mitochondrial, α-methylselenocysteine semisynthetic variant (Txnrd2, Mus musculus, UniProt Q9JLT4)	enzyme activity, inhibitor	–	10 min, pH 7, 22 °C, pre-reduced enzyme, together with: Trx 150 µM	57 nM
O=C(/C=C/c1ccccc1)c1ccc(OCCNC2CCN(Cc3ccc(Cl)c(Cl)c3)CC2)cc1	Cholinesterase (BCHE, Homo sapiens, UniProt P06276)	enzyme activity, inhibitor	–	pH 8	26100 nM
O=C(O)c1ccccc1Nc1ccc(Cc2ccccc2)cc1	AR	reporter gene, antagonist, MMTV-Luc reporter	MDA-kb2	20 h, together with: 0.2 nM DHT (EC50)	2200 ± 1000 nM
O=C(O)C(=O)CBr	HDAC1	enzyme activity, inhibitor	–	–	20000 nM
O=C(O)c1ccccc1-c1c2cc(I)c(=O)c(I)c-2oc2c(I)c(O)c(I)cc12	secA	ATPase activity, inhibitor	–	full-length protein	20000 to 30000 nM and 21000 nM
CN[C@H](CC(C)C)C(=O)N[C@H]1C(=O)N[C@@H](CC(N)=O)C(=O)N[C@H]2C(=O)N[C@H]3C(=O)N[C@H](C(=O)N[C@H](C(=O)O)c4cc(O)cc(O)c4-c4cc3ccc4O)[C@H](O)c3ccc(c(Cl)c3)Oc3cc2cc(c3O[C@@H]2O[C@H](CO)[C@@H](O)[C@H](O)[C@H]2O[C@H]2C[C@](C)(N)[C@H](O)[C@H](C)O2)Oc2ccc(cc2Cl)[C@H]1O	Transglycosylase (Staphylococcus aureus, UniProt Q9R744)	transglycosylation, inhibitor, TLC radioactivity	RN4220	1 h, pH 7.0, 30 °C, 10 % DMSO, together with: 4 µM [14C]-C35-depsi-lipid II (D-Ala-D-Lac)	> 64000 nM
O=C(COc1ccc(I)cc1)N[C@H]1CCOC1=O	HTH-type quorum-sensing regulator RhlR (rhlR, Pseudomonas aeruginosa, UniProt P54292)	reporter gene, antagonist	–	–	17300 nM
Cc1cc(O)cc2c1O[C@](C)(CCC[C@H](C)CCC[C@H](C)CCCC(C)C(=O)O)CC2 (stereo partly shown)	Prostaglandin G/H synthase 2 (PTGS2, Homo sapiens, UniProt P35354)	enzyme activity, inhibitor, ELISA	–	–	4000 nM
O=C(NCCCCCn1ccc2ccc(F)cc21)Oc1ccccc1	Cholinesterase (BCHE, Equus caballus, UniProt P81908)	enzyme activity, inhibitor, HPLC	–	–	~4000 nM and 4300 nM
Cn1ncnc2c(=O)n(C)c(=O)nc1-2	Protein disulfide-isomerase (P4HB, Homo sapiens, UniProt P07237)	enzyme activity, inhibitor, absorbance	–	–	105 nM
CN1C(=O)[C@]23SS[C@@]1(C)C(=O)N2[C@H]1Nc2ccccc2[C@@]1([C@@]12c4ccccc4N[C@@H]1N1C(=O)[C@@]4(C)SS[C@]1(C(=O)N4C)[C@H]2O)[C@@H]3O	Protein arginine N-methyltransferase 3 (PRMT3, Homo sapiens, UniProt O60678)	methyltransferase activity, inhibitor	–	together with: 1 µM [3H]SAM	> 10000 nM
CCCCNNC(=O)c1ccc(Br)cc1	HDAC1	enzyme activity, inhibitor	–	–	460 nM
CC(C)COC(=O)c1ccc2c(c1)/C(=C/Nc1ccc(S(N)(=O)=O)cc1)C(=O)N2	ROP18	enzyme activity, inhibitor	–	–	170 nM
CC1=C(O)C(=O)C=C2C1=CC=C1[C@@]2(C)CC[C@@]2(C)[C@@H]3C[C@](C)(C(=O)O)CC[C@]3(C)CC[C@]12C	AR	ligand displacement in cells, radioligand	–	–	58 nM
COc1ccc(NC(=O)N2CCCCN3[C@H](CN(C)C(C)C)[C@H](c4ccc(C#Cc5ccccc5)cc4)[C@@H]3C2)cc1	Phenylalanine--tRNA ligase alpha subunit	aminoacylation activity, inhibitor	–	–	86 nM
C[C@@H]1C[C@H]2[C@@H]3CCC4=CC(=O)C=C[C@]4(C)[C@@]3(Cl)[C@@H](O)C[C@]2(C)[C@@]1(OC(=O)c1ccco1)C(=O)CCl	Multidrug resistance-associated protein 1 (ABCC1, Homo sapiens, UniProt P33527)	substrate efflux, inhibitor, flow cytometry	ABCC1-overexpressing SupT1-Vin cells	together with: BODIPY-FL-histamine 500 nM	3700 ± 1000 nM

Some of these lines once more:
SMILES	target	assay	test system	conditions	IC50
CC1(C)[C@@H](OC(=O)CCC(=O)O)CC[C@]2(C)[C@H]3C(=O)C=C4[C@@H]5C[C@@](C)(C(=O)O)CC[C@]5(C)CC[C@@]4(C)[C@]3(C)CC[C@@H]12	CRISPR-associated endonuclease Cas9/Csn1 (cas9, Streptococcus pyogenes serotype M1, UniProt Q99ZW2)	DNA cleavage, inhibitor, in vitro cleavage	Streptococcus pyogenes	together with: FAM-labelled PCSK9 DNA substrate	~5000 nM
N#Cc1cccc(OC(=O)NCCCCCn2ccc3ccc(F)cc32)c1	Cholinesterase (BCHE, Equus caballus, UniProt P81908)	enzyme activity, inhibitor, HPLC	–	–	380 nM
N=C(N)NCc1ccc(C(=O)NCCCCC(NC(=O)NC(CCC(=O)O)C(=O)O)C(=O)O)cc1I (stereo not shown)	Glutamate carboxypeptidase 2 (FOLH1, Homo sapiens, UniProt Q04609)	enzyme activity, inhibitor, fluorescence	–	lysate	2.24 nM
CN(Cc1cccc(-c2ccncc2)c1)C(=O)OC(C(F)(F)F)C(F)(F)F	Fatty-acid amide hydrolase 1 (Faah, Mus musculus, UniProt O08914)	competitive ABPP	mouse brain membrane proteome	–	> 50000 nM
CCCCCCCCCCCCC/C=C/[C@@H](O)[C@@H](N)COP(=O)(O)OCC[N+](C)(C)C	Ryanodine receptor 1 (RYR1, Oryctolagus cuniculus, UniProt P11716)	[3H]ryanodine binding, radioligand binding	skeletal SR vesicles	reducing, no calmodulin, together with: 5 mM GSH, 50 µM free Ca2+	26100 ± 800 nM
N#CC(=C(/N)Sc1ccccc1N)/C(C#N)=C(\N)Sc1ccccc1N	ERRα (human)	reporter gene, antagonist, luciferase reporter qHTS	–	–	11200 nM
Cc1cccc(C)c1S	Potassium/sodium hyperpolarization-activated cyclic nucleotide-gated channel 1 (Hcn1, Mus musculus, UniProt O88704)	channel gating (V1/2 shift), inhibitor, two-electrode voltage clamp	Xenopus oocytes	–	408000 ± 55000 nM
